Published values pooled from the literature.
Compare with care: the assays were run in different laboratories. ± gives the spread as reported.
gag-pol reverse transcriptase: Gag-Pol polyprotein, reverse transcriptase (gag-pol, Human immunodeficiency virus type 1 group M subtype B, UniProt P04585)
gag-pol protease: Gag-Pol polyprotein, protease (gag-pol, Human immunodeficiency virus type 1 group M subtype B, UniProt P04585)

Cc1cc(/C=C/C#N)cc(C)c1Nc1ccnc(Nc2ccc(C#N)cc2)n1  EC50 (gag-pol reverse transcriptase; enzyme activity, inhibitor; 30 min, room temperature): 120 ± 60 nM
N#Cc1cn(Cc2ccccc2)c2ncc(Br)cc12  IC50 (gag-pol reverse transcriptase; enzyme activity, inhibitor): no inhibition
CC(C)CN(C[C@@H](O)[C@H](Cc1ccccc1)NC(=O)O[C@H]1C[C@@H]2C[C@H]3[C@H](OC[C@H]31)O2)S(=O)(=O)c1ccc2nc(NC3CC3)sc2c1  Ki (gag-pol protease; enzyme activity, inhibitor): 0.32 nM
O=C(O)C1=CC(=C(c2ccc(O)c(C(=O)O)c2)c2ccc(O)c(C(=O)O)c2)C=CC1=O  IC50 (gag-pol reverse transcriptase; AZT-MP excision, inhibitor; HIV-1, wild-type reverse transcriptase; with: ATP 2 mM): 140 ± 19 nM
COc1ccc(S(=O)(=O)N(CC(C)C)C[C@@H](O)[C@H](Cc2ccccc2)NC(=O)O[C@@H]2CCC[C@@]23CCO[C@@H](c2ccccc2)C3)cc1  Ki (gag-pol protease; enzyme activity, inhibitor, fluorometric): 51.3 nM
Cc1cn([C@H]2C=C[C@@H](COP(=O)(O)OP(=O)(O)OP(=O)(O)O)O2)c(=O)[nH]c1=O  IC50 (gag-pol reverse transcriptase; inhibitor; HIV-1): 4520 ± 1160 nM
COc1ccc(S(=O)(=O)N(CC(C)C)C[C@@H](O)[C@H](Cc2ccccc2)NC(=O)O[C@H]2CCC[C@@]23CCO[C@@H](c2cc(OC)cc(OC)c2)C3)cc1  Ki (gag-pol protease; enzyme activity, inhibitor, fluorometric): 2.64 nM
Cc1cccc(C)c1OCC(=O)N[C@@H](Cc1ccccc1)[C@H](O)C(=O)N1CSC(C)(C)[C@H]1C(=O)N[C@H]1c2ccccc2C[C@H]1O  Kd (gag-pol protease; denaturation shift, tryptophan fluorescence; pH 5.0, with: GdnHCl): 0.063 nM
CC(C)CN(C[C@@H](O)[C@H](Cc1cc(F)cc(F)c1)NC(=O)O[C@H]1C[C@@H]2C[C@H]3[C@H](OC[C@H]31)O2)S(=O)(=O)c1ccc2nc(NC3CC3)sc2c1  Ki (gag-pol protease; enzyme activity, inhibitor): 0.021 nM
Cc1ccc(-c2cnc3c(c2)c(C#N)cn3Cc2ccccc2)cc1  IC50 (gag-pol reverse transcriptase; enzyme activity, inhibitor): no inhibition

Repeated from above:
CC(C)CN(C[C@@H](O)[C@H](Cc1ccccc1)NC(=O)O[C@H]1C[C@@H]2C[C@H]3[C@H](OC[C@H]31)O2)S(=O)(=O)c1ccc2nc(NC3CC3)sc2c1  Ki (gag-pol protease; enzyme activity, inhibitor): 0.32 nM
